Measured values collected from several papers.
Parts stem from different laboratories: compare values within a part only.

Sample 1 — method: RNA Bind-n-Seq; molecule type: RNA; matrix: in vitro; concentration: 365 nM; relative to: no-protein control; direction: higher = stronger binding; quantity: RBNS enrichment (R)
Target: RNA binding protein fox-1 homolog 2, RRM domain, GST-SBP tag (RBFOX2, Homo sapiens, UniProt O43251-10, residues 100-194)
Setting: natural RNA segment, single round, ends assumed
Construct (chain): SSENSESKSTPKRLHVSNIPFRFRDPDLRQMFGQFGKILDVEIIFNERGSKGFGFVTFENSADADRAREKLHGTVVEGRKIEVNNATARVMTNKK
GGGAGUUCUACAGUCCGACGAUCCAGAGAUUUGGGGGCUUCAUUAACAGGGACUAGCAGGGUGUUUUUCAAACCAUCCCGGUGGCUGGGAUGCAAGCUCAAGUUUGAGAACCACUGGUUUUGUCCUGGUGUUUUGGAAUUCUCGGGUGCCAA: 0.615
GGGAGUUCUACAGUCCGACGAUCUCCUCCUUACUCUAAGCUAAAUCUAGGUGAGGUUUCCCCUUAGGGAGCCCAGCUAUUUACAAAGUACACACGAGGGAGCAGGCUGGUCAUUGACUUCGGGCUGGACCGUUUGGAAUUCUCGGGUGCCAA: 0.206
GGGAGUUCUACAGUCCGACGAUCUGACCAGAUUGUUUGGCUAACACAUCCCGAAGAAUGAUUUUGUCAGGAAUUAUUGUUAUUUAAUAAAUAUUUCAGGAUAUUUUUCCUCUACAAUAAAGUAACAAUUAACUUGGAAUUCUCGGGUGCCAA: 0.416
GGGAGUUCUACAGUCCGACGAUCUUAUAGAUCUUUUGACAGUUUCUCUGUUUAGGGGAGCCUAGACUGAUAUCAAGUUUCUUCAUAUCAAAGCUUCAUUGGUGACCUCAUUUGCUUUACAAGUGACCAGCCAUUGGAAUUCUCGGGUGCCAA: 0.195
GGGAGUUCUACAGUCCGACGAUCUACCUGGACUCAAUGACAAAGACCGAGUCUUCUUUUUUUUUAAACAAAAACAAAAAAAGCAACCAGGGCUAUUUGUACAGUUGAAGGGGUGAACAGAAUGGGCGGCUGUGUGGAAUUCUCGGGUGCCAA: 0.819
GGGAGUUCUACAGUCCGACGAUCGUGAACUGUUUUUGUGCCAAGAAACCCUGGACCUGGGGCCAAGUAUUUCCCAAGCCAAGCAUCCACUUGUCUGUGUCUGGGAAGGGAUGGCCAAGGCCGCUAGGGUCCUUUGGAAUUCUCGGGUGCCAA: 0.283
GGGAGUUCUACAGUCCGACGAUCAUUUAUGAUGAAAUAUUUUAAUUAGGUCAAUUAUCUAGAAUUACCUAGUUUUGUCUAUAUAUCUUUUCCAUGAAAUUAUAGCUAUCUAUGUAUUUGUAGUUGUUUCUUUCUGGAAUUCUCGGGUGCCAA: 0.622
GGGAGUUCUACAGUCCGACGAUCAACCAAGUGGUGACUUUGUCCUCUGCCUGCUCAGUCACAAAGUAUAUCACUAGGCCAUAAAAAUGGAGAUGAUGUUUUGCUUGUGUCACAGUAGGUCUUGUGCAGUGUCAUGGAAUUCUCGGGUGCCAA: 2.18
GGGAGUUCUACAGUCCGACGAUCUCACCCAGGGCUCCUAGGGGGACAAGGCUCUCUCCCGAGGGGUGUGGAAUUCCUGGGGGGGUCUUUAAUUCUGGCUCCUUCCUUCCUCAGAACAUCUCUAUUCUGCAAGAUGGAAUUCUCGGGUGCCAA: 0.744

Sample 2 — method: RNA Bind-n-Seq; molecule type: RNA; matrix: in vitro; concentration: not given; relative to: input RNA pool; direction: higher = stronger binding; quantity: bound/input enrichment
Target: RING finger protein unkempt homolog, zinc fingers 1-6, GST-SBP tag (UNK, Homo sapiens, UniProt Q9C0B0, residues 30-357)
Setting: RNA with constant flanks, human-mouse chimeric sites, ends assumed
Residues (chain): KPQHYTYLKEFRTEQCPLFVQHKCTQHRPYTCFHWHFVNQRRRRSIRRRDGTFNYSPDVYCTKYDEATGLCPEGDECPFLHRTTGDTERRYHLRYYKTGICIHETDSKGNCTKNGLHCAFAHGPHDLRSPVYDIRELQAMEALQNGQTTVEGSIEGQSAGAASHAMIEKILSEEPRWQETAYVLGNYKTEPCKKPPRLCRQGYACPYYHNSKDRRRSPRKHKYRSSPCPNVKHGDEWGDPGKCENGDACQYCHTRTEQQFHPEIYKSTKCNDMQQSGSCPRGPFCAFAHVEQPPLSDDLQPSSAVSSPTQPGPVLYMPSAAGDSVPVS
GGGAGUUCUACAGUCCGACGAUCAAGGUGAUGACUAUGUUUGUCCAACGACAGGUAUUUUCGGAGAGCAAAGAUGAGAUUGCGUUAGUCCUCUAUGGCACAGAUGGCACUGAUAAUGCCCUUUCUGGUGGGGACCAGUAUCAGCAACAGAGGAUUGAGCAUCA: 0.216 ratio
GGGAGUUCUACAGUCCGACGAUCGUAUACGGUUAUCGAGGAAAGGACUGUAGAGCGAAUGUAUACCUGCUUCCCACAGGGGAGAUAGUUUAUUUCAUUGCCUCAGUGGUAGUCCUGUUUAAUUAUGAGGAGAGGACUCAGCGACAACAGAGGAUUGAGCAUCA: 0.872 ratio
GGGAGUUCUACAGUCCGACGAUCAACUUCGUGCAUCGGUUUCCCUUUGUAGCUGUUUCAAUUGGCUUCCUUGUGAAUAAAGAGAUGGAGUUUGGAAUUGUGUACAGCUGUGUGGAAGGCAAGAUGUACACUGCCAGAAAAGGGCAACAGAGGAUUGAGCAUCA: 0.303 ratio
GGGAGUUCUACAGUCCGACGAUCAAAGCCCAAGUAUUUUGAAAAAACUCGAACAGAUUUGUCAAGGGUAACCAGCUUGGAGUCUAGCAAUUUGCCAAUGUGUUUACCAAUCUGGGGGCUUGUUUUUCUUUUCUUCUUUCAAAUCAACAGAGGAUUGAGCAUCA: 0.329 ratio
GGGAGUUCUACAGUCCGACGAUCCGCUGGCCCAAGCUGAUGUAAAUGUUUGGCCUCCAUCUCUCAGGCACGUUUGCCUUCUCUUAGUCCCUGUUUUCGGGAUGUUAUGAAUCUCAGUACUGUGGUUUGAAAGCACCAGCUUUGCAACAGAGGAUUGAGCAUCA: 0.124 ratio
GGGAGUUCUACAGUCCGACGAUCUCUUAACUUAUUCAUUUAACUUAUUUUUAUAGCUAGAUAAAUAUUGUUAGUCUUAGAGAGUAGUUCACAUUUUUUGAGAAGCAUGCCCUCCCUGUCCAUUUGUCUUAUAACAUGACCCAGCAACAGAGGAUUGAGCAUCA: 8.32 ratio
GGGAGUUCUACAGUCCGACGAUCCUGUGACCACAAGAUCCUGAAGUUUGAGCAGCUGAAGUUGACUCCCUCUCCUUGCCUGAACCCCCCCCCACUGCCCCCCCAUCCCCCAGUGUCGGCUAUUCUCUGGUCUCUGCACGGUUCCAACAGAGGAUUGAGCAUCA: 0.962 ratio
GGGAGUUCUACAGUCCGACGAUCGUGCCCUUCUCGCUGCUGCGGAGCCCGAGCUGGGAACACCCCUUCCGCGACUGGUACGCACACAGCCGCCUCUUCGAUCAAGCUUUCGGGGUGCCCCGGUUGCCCGAUGAGUGGUCGCAGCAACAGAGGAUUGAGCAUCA: 0.0951 ratio

Sample 3 — method: protein-binding microarray; molecule type: double-stranded DNA, one strand shown; matrix: in vitro; concentration: 2540 nM top; setting: 60-bp whole probe; added: salmon DNA 0.4 mg/ml; relative to: random background probes; direction: higher = stronger binding; quantity: fitted relative affinity; constant ends, left off below: GCCTAGCAC … GTCTTGATTCGCTTGACGCTGCTG
Target: Interferon regulatory factor 3, full length, phosphomimetic (IRF3, Homo sapiens, UniProt Q14653, residues 1-427, S386D/S396D/S398D/S402D/T404D/S405D)
UniProt Q14653, sequence (whole entry, unmodified, looked up): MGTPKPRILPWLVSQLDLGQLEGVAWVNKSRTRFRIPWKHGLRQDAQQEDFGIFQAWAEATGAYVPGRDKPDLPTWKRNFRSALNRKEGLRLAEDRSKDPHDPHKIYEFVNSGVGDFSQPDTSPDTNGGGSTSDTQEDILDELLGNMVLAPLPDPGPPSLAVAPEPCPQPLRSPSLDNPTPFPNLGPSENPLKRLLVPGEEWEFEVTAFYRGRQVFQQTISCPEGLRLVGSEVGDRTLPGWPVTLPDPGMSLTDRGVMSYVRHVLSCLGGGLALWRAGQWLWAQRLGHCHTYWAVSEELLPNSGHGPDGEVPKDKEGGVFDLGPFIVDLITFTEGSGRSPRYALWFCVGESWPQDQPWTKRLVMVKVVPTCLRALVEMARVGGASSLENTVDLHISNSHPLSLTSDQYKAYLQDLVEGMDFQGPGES
TTGGCTTATTCCAGATTTTTGTGCTAG: -0.114 z-score
GGAGAGTTCCAGGAGGTCGAGTGCTAG: -0.366 z-score
TTAGGTTTCCTACTTCTTTAGTGCTAG: 6.48 z-score
TTATATATCAGTTTCGATTAGTGCTAG: 4.67 z-score
TTAGGTTTCGGACTGGGTTTGTGCTAG: 4.09 z-score
TTTGCTTTCTTTATGCACTCGTGCTAG: 2.61 z-score
GACGATATCAGTTACGAGACGTGCTAG: 0.797 z-score
TCATGTTGCAGACTCGAACTGTGCTAG: 1.76 z-score
TCCTGTTTGATAATTTTTTTGTGCTAG: 0.63 z-score
ACATATTTGTTTCCATTTTCGTGCTAG: 6.77 z-score
TTAGGTCTCCTCCTCCTTTAGTGCTAG: 0.605 z-score
TGAGGTCTCCTTCTCCTTTAGTGCTAG: 3.7 z-score
TTAGAACTGCGTATCGATTAGTGCTAG: 0.133 z-score
CACAACCAAACAAGAAGATGGTGCTAG: 0.686 z-score
TTATGTCTCCTTTTCCTTTAGTGCTAG: 5.44 z-score
TTAGGTGTCCTTTCCCTTTAGTGCTAG: 6.02 z-score
TTAGGTTTCGACTATCGGCTAGTGCTA: 2.26 z-score
TCAAATTTGCTTTAGTCACTGTGCTAG: 0.0509 z-score
GTCGATCTCAGTCTCGAGACGTGCTAG: 1.6 z-score
GCCGATCTCAGTCTCGAGACGTGCTAG: 2.33 z-score
GACGTTCTCGGACTGGGGACGTGCTAG: 0.594 z-score
GACGGTTTCCTTTTCCTGAGGTGCTAG: 10.8 z-score
TTAGGTATCGACTTCCGGTTAGTGCTA: 0.793 z-score
GACGGTCTAGGTATCGGGACGTGCTAG: 0.422 z-score

Sample 4 — method: competition protein-binding microarray; molecule type: double-stranded DNA, one strand shown; matrix: in vitro; concentration: 2 µM; added: Cbf1 competitor, 0.05 µM; direction: higher = stronger binding; quantity: fluorescence intensity
Target: Phosphate system positive regulatory protein PHO4, full length, GST-tagged (PHO4, Saccharomyces cerevisiae, UniProt P07270, residues 1-312)
Setting: whole 60-bp probe, lowest competitor level
Target sequence (chain): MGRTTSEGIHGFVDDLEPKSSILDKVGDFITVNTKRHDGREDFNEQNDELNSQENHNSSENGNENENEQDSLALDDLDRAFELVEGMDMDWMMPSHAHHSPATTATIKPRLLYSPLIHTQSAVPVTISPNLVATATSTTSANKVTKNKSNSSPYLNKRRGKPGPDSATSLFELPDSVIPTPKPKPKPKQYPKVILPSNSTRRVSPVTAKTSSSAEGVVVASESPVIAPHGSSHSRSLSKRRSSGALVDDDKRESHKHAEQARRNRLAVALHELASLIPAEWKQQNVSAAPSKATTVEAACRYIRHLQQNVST
CGGGGTTAAGTTTGTCACGCAACTTGCTTGCAGCAGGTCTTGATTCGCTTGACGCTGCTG: 5210 a.u.
TTAGATGACTGTTAGCACGTAATGATTTGGCCATGAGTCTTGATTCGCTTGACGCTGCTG: 5590 a.u.
TGCGCAACAACTTGTATTGTGGGTGTATGTCTAGAAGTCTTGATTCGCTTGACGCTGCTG: 4670 a.u.
GACTCTGAAAAGGGTACCGTGACTCGGAAAGAAGTTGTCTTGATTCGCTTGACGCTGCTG: 3760 a.u.
GTCTTGTCTCATTGCACAGTGGGTGTCCCCACTTCAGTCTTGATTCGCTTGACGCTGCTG: 5170 a.u.
GTCTTGTCTCATTGACTGGTGGGTGTCCCCACTTCAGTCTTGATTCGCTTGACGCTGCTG: 4480 a.u.
CTTCTGTAAATTTGTCACGGTACTTGACGCGCCCCGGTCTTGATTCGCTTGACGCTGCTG: 4530 a.u.
TGCGCAACAACTTGTCACGAAACTTTATGTCTAGAAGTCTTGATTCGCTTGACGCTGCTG: 3780 a.u.
CATACCCAACCTTGTCACGACACTTAAGATATTTGTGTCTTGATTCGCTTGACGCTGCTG: 5240 a.u.
ATTGAAAGCGCCCGGATCGTGCCAGTATTTACCACCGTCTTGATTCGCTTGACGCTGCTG: 9270 a.u.
CTAAACTACGCCTGGCACGTGGGTAATGAAGTATACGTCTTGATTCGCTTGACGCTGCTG: 16400 a.u.
CTCCGGCGGCCATTTTACGTGACGGAGCATCCCTTAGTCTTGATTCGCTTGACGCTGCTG: 3060 a.u.
CGCTTGAAAAGGAATCATGTGCCTATTTTCCTCATTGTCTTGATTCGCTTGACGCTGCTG: 8420 a.u.
CCAGTAACTTCGTTGACCGTGATGGTCCGTTCATTTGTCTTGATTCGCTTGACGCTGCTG: 4780 a.u.
TGCGCAACAACTTGGGAGGTGGGTGTATGTCTAGAAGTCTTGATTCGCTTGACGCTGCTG: 5230 a.u.
ACTGGAAACGAGCAACACATGTCCCACTTTGCCACAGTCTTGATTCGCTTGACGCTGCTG: 10700 a.u.
AAAGCGGTAATTTGCGTCGTGGGTGCAGATATCTATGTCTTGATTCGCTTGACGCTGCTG: 7610 a.u.
GGTTTGTCCGTTTTATGACTCTCCTCAACAAGATATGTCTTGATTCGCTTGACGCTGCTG: 3670 a.u.
CTTTCCCGATCTTGTTGGGTGGGTGTAGCACATTTGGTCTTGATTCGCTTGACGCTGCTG: 4640 a.u.
TGCGCAACAACTTGCGAGGTGGGTGTATGTCTAGAAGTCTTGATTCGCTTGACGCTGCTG: 5050 a.u.
GTCTTGTCTCATTTTCACGTGGCTTTCCCCACTTCAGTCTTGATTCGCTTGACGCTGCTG: 12100 a.u.
